Results gathered from unrelated publications.
Compare with care: the assays were run in different laboratories. Several values in a cell are separate wells, animals, samples, runs or records. Numbers after ± are the reported error.

For `C=CC(=O)NC1CCN(c2ncc3ncnc(Nc4ccc(Oc5ccc6c(c5)ncn6C)c(C)c4)c3n2)CC1`, the IC50 was 3.5 nM (Ba/F3 expressing HER2 S335C; cell growth, inhibitor, CellTiter-Glo).
With `C[C@H]1[C@H](OC(=O)CCC(=O)O)O[C@@H]2O[C@@]3(C)CC[C@H]4[C@H](C)CC[C@@H]1[C@@]24OO3` the IC50 was 47600 nM (primary AML blasts 2; cell viability; human; 96 h).
`Cc1ccc(C(=O)Nc2ccc(CN3CCN(C)CC3)c(C(F)(F)F)c2)cc1C#Cc1cnc2cccnn12` gave an IC50 of 619 nM (LS174T; WNT reporter gene, inhibitor, TCF/LEF luciferase).
The IC50 of `[NH2][Pt]([NH2])([Cl])[Cl]` is reported as 4500 ± 500 nM (RWPE-1 normal prostate; cell viability, MTT; 72 h).
The IC50 of `COc1cc2c3c(n(CCCN4CCOCC4)c(=O)c2cc1OC)-c1nc2c(cc1C3=O)OCO2` is reported as 248 ± 96 nM (CCRF-CEM leukaemia cells; cytotoxicity, MTS; 72 h).
For `CCCCN1C[C@H](O)[C@@H](O)[C@@H](O)[C@H]1CO`, the IC50 was 9000 nM (sample G patient fibroblasts; Gb3 level lowering, LC-MS/MS, refers to: Gb3 d18:1/18:0; 216 h).
The IC50 of `CO[C@H]1[C@H](O[C@H]([C@H]2O[C@@H](n3ccc(=O)[nH]c3=O)[C@H](O)[C@@H]2O)[C@H](NCCCNC(=O)[C@@H](NC(=O)[C@@H](NC(=O)N[C@H](C(=O)O)C(C)C)[C@@H]2CCN=C(N)N2)[C@@H](O)C(C)C)C(=O)O)O[C@H](CN)[C@H]1O` is reported as > 35000 nM (breast cancer, MCF-10A and Vero; cell viability, WST-1; range over all lines).
`OCc1ccc(-c2nn(Cc3ccccc3)c3c2CCCC3)o1` gave an IC50 of 1520 nM (RBE; cell viability, CellTiter-Glo).
`O=C(Nc1ccc(CN2CCOCC2)c(C(F)(F)F)c1)c1ccc(C#Cc2cccc3cnccc23)cn1` has an IC50 of > 180000 nM (SUM149PT; cell viability, MTT; 72 h).
`CC#Cc1cncc(-c2ccc3c(c2)[C@@]2(N=C(C)C(N)=N2)[C@]2(CC[C@H](OC)CC2)C3)c1` gave an IC50 of 0.08 nM (SH-SY5Y, APP overexpressing, wild type; Aβ40 production).
With `O=C(C[C@@H](C(F)F)n1ccc(F)n1)N1CCC(O)(Cn2cnc3c(cnn3-c3ccc(F)cc3)c2=O)CC1` the IC50 was 50 ± 10 nM (CAPAN-1; cell viability, SRB; 5 days).
`CC#CC(=O)N1CCC[C@H]1c1nc(-c2ccc(C(=O)Nc3ccccn3)cc2)c2c(N)nccn12` gave an IC50 of 72.7 nM (Rec1; calcium flux; with: anti-IgM).
`CC(C)c1ccc(C2C(C#N)=C3N=C(N)c4ccccc4N3C3=C2C(=O)CCC3)cc1` (stereo not drawn) gave an IC50 of > 60000 nM (BV-2; nuclear intensity, high-content imaging; geometric mean).
`CCOc1cc2ncc(C#N)c(Nc3ccc(OCc4ccccn4)c(Cl)c3)c2cc1NC(=O)/C=C/CN(C)C` has an IC50 of 0.7 nM (Ba/F3 expressing HER2 S335C; cell growth, inhibitor, CellTiter-Glo).
`COc1ccccc1OCC(O)CN1CCN(CC(=O)Nc2c(C)cccc2C)CC1` (stereo not drawn) has an IC50 of 53100 nM (hiPSC-derived cardiomyocytes; beat period change, field potential recording; 30 min, coupled electrode condition).
`CCN(Cc1ccc(F)cc1F)c1ccc(CO)c(Cl)c1` gave an IC50 of 210 nM (RBE; cell viability, CellTiter-Glo).
For `O=C1NCCc2[nH]c(-c3ccncc3)cc21`, the IC50 was 9300 nM (786-0 renal; cell growth, MTS).
The IC50 of `Cc1cc(Nc2ncc(Cl)c(Nc3ccccc3S(=O)(=O)C(C)C)n2)c(OC(C)C)cc1C1CCNCC1` is reported as 380 ± 140 nM (NCI-H2228 (EML4-ALK); cell growth; 3 days).
The IC50 of `COCCN(Cc1ccc(F)cc1)c1ccc(CO)c(Cl)c1` is reported as 370 nM (RBE; cell viability, CellTiter-Glo).
For `O=C(c1cc(Cc2n[nH]c(=O)c3ccccc23)ccc1F)N1CCN(C(=O)C2CC2)CC1`, the IC50 was 9.71 nM (SK-OV-3 BRCA2 knockout; colony formation).
`N#Cc1ccc2c(CN3CCOCC3)cc(-c3ccc(C4CCC(=O)N4)cc3)nc2c1` (stereo not drawn) gave an IC50 of 12 ± 7 nM (mouse aortic smooth muscle cells; cell migration, scratch wound; with: CML-HSA 10 µg/mL).
With `Cc1[nH]c(/C=C2\C(=O)Nc3ccc(S(=O)(=O)N(C)c4cccc(Cl)c4)cc32)c(C)c1C(=O)N1CCN(C)CC1` the IC50 was 8320 ± 3010 nM (NCI-H2228 (EML4-ALK); cell growth; 3 days).
The IC50 of `OCc1ccc(-c2nn(Cc3ccncc3)c3ccccc23)o1` is reported as 160 nM and 170 nM (RBE; cell viability, CellTiter-Glo).
With `C=CC(=O)Nc1cc(Nc2nccc(-c3cn(C)c4ccccc34)n2)c(OC)cc1N(C)CCN(C)C` the IC50 was 48.1 ± 1.85 nM (Ba/F3 EGFR S768I; cell proliferation, CellTiter-Glo; 72 h).
`COc1ccc(F)cc1C(=O)NCc1ccc(-c2nn([C@@H](C)C(F)(F)F)c(N)c2C(N)=O)cc1` has an IC50 of > 100 nM (Rec1; refers to: IL-4; 24 h).
For `COc1c(Cl)cccc1Nc1c(-c2ccncc2OC[C@@H]2COCCO2)[nH]c2c1C(=O)NCC2`, the IC50 was 5.9 nM (Ba/F3 expressing HER2 S335C; cell growth, inhibitor, CellTiter-Glo).
`COc1cc(N2CCC(N3CCN(C)CC3)CC2)ccc1Nc1ncc(Cl)c(Nc2ccccc2S(=O)(=O)C(C)C)n1` has an IC50 of 220 ± 70 nM (NCI-H2228 (EML4-ALK); cell growth; 3 days).
`Cc1c(C(=O)O)ccc2c3n(nc12)[C@@H]1[C@H](C3)N(CC2CC2)[C@@]2(C(=O)Nc3cc(Cl)ccc32)[C@H]1c1cccc(Cl)c1F` has an IC50 of 34 nM (LS180 (MDM2 non-amplified); cell growth, alamarBlue; 120 h).
`Cc1nc(Nc2ncc(C(=O)Nc3c(C)cccc3Cl)s2)cc(N2CCN(CCO)CC2)n1` has an IC50 of 3140 nM (HPAC; cell viability, MTT; mutant KRAS primary).
`OCc1ccc(N(Cc2ccc(F)cc2)C2CCC2)cc1Cl` gave an IC50 of 740 nM (RBE; cell viability, CellTiter-Glo).
For `CC(C)NCC(O)c1ccc(NS(C)(=O)=O)cc1` (stereo not drawn), the IC50 was 270 nM (hiPSC-derived cardiomyocytes; beat period change, field potential recording; 30 min, decoupled electrode condition).
`C[C@H](Nc1ccc2c(c1)OCCn1cc(N3C(=O)OC[C@H]3C(F)F)nc1-2)C(N)=O` gave an IC50 of 27.5 nM (ESS-1; growth rate inhibition, CellTiter-Glo; 120 h).
`Cn1ncnc1[C@H]1c2n[nH]c(=O)c3cc(F)cc(c23)N[C@@H]1c1ccc(F)cc1` gave an IC50 of 0.689 nM (SK-OV-3 BRCA2 knockout; colony formation).
`COc1ccccc1Cn1nc(-c2ccc(CO)o2)c2ccccc21` gave an IC50 of 440 nM (RBE; cell viability, CellTiter-Glo).
For `CC(=O)C1=C(C)Nc2sc(C(=O)c3ccc(Cl)c(Cl)c3)c(N)c2C1c1cccnc1` (stereo not drawn), the IC50 was 17500 nM (BV-2; cell count, high-content imaging; geometric mean).
The IC50 of `CCN(Cc1ccccn1)c1ccc(CO)c(Cl)c1` is reported as 430 nM (RBE; cell viability, CellTiter-Glo).
The IC50 of `Clc1ccc(COc2cncc(-c3cnn(C4CCNCC4)c3)c2)c(Cl)c1` is reported as 4190 nM (BV-2; cell count, high-content imaging; geometric mean).
For `CCN(Cc1c(Cl)cccc1Cl)c1ccc(CO)c(Cl)c1`, the IC50 was 150 nM (RBE; cell viability, CellTiter-Glo).
`COc1cc2c3c(n(CCCNC(C)C)c(=O)c2cc1OC)-c1nc2c(cc1C3=O)OCO2` has an IC50 of 57 ± 28 nM (CCRF-CEM leukaemia cells; cytotoxicity, MTS; 72 h).
